Experimental data collected from several papers.
Each numbered part is a random draw from the data of one study; scales do not carry over between parts. Substitutions count along the parent as printed.

Block 1
Target: CCNE2, cyclin fold, Cln2 fusion (human)
Method: yeast growth competition, sequencing
Matrix: yeast
Notes: weak parent motif
Reference: not given
Reading: higher = stronger binding
Starting sequence: SLBP docking peptide (human); ARYKRKLLINDFG
Change	normalised enrichment score
ARYKRKLLICDFG [N10C]	0.853
ARYKRKLLINDPG [F12P]	0.28
ARYKYKLLINDFG [R5Y]	0.442
ARPKRKLLINDFG [Y3P]	0.0704
ARYKRSLLINDFG [K6S]	-0.0879
ARYDRKLLINDFG [K4D]	-0.198
ARYKRKLLINWFG [D11W]	0.367
RRYKRKLLINDFG [A1R]	0.765
GRYKRKLLINDFG [A1G]	1.01
ARCKRKLLINDFG [Y3C]	0.409
CRYKRKLLINDFG [A1C]	0.317
ARYKRKLLINDWG [F12W]	0.398
ARAKRKLLINDFG [Y3A]	0.581
ARKKRKLLINDFG [Y3K]	0.00364
ARYKRKLLINDFE [G13E]	0.699
ARYKRKLLMNDFG [I9M]	0.85
ARYKRKLCINDFG [L8C]	0.398
SRYKRKLLINDFG [A1S]	1.19
ARYTRKLLINDFG [K4T]	-0.0992

Block 2
Target: Histone acetyltransferase KAT6A, both winged helices, GST fusion (KAT6A, Homo sapiens, UniProt Q92794, residues 1-181)
Method: protein binding microarray
Molecule type: double-stranded DNA, one strand shown
Matrix: in vitro
Concentration: not given
Notes: 8-mer, flanks averaged, mean of 2 arrays, mostly near background
Reference: not given
Reading: higher = stronger binding
Target sequence (chain): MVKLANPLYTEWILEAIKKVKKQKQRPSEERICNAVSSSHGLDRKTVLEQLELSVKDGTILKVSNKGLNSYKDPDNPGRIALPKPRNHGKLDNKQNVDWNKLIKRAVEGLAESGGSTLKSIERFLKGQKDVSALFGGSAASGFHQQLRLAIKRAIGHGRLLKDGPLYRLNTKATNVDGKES
Sequence	E-score
GACGAGGC	-0.0119
AATTGGGA	-0.063
AACAGCCT	-0.0785
GAACTTGC	-0.112
AAGAGCGT	0.143
CTCTTCTC	-0.0706
CACCTCGA	-0.0861
CAGACATG	-0.0374
CATGCCAA	-0.264
AAAGCCCA	-0.0915
GATCCATC	-0.0461
GGGGGATA	-0.162
GCTTCTGA	0.016
TCATTTCA	-0.0964
CACACATG	-0.124
AAAATTTA	-0.0356

Block 3
Target: ABI1, truncated, D143A, DHFR fusion (Arabidopsis thaliana)
Method: DHFR PCA, deep sequencing
Matrix: yeast
Notes: methotrexate growth selection, single substitutions
Added: (+)-ABA 0 µM
Reference: wild-type fitted maximum
Reading: higher = stronger binding
Starting sequence: PYL1, truncated, DHFR fusion (Arabidopsis thaliana); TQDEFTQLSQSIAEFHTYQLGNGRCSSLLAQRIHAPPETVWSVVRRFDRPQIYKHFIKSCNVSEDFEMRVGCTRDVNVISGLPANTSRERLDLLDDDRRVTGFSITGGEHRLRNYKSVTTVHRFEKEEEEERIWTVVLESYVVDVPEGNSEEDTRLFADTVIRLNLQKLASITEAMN; partner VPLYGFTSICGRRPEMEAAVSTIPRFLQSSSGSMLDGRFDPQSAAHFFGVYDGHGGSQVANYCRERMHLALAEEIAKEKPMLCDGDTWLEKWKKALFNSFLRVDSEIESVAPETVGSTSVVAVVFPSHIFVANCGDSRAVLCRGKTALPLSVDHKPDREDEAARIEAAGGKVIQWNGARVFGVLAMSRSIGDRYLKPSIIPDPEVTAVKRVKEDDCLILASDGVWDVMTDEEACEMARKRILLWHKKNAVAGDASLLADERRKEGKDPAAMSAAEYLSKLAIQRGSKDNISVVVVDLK
Change	relative binding score
T160H	6.27%
D97E	45.2%
Y141Q	-2.36%
S150P	2.23%
I79P	-0.124%
K116E	1.59%
D3E	47%
V76Q	0.921%
S11N	7.29%
N22H	33.6%
E152N	0.322%
S80A	12.6%
R46K	4.32%
V100A	24.1%

Mixed results
Molecule	target	assay	system	conditions	scale	measurement	value
PhoQ, residues 284 288 289 292 302 303 MLMVEA	PhoP, residues 12 14 15 18 19 NMSFL (Escherichia coli, UniProt P23836)	Sort-seq, refers to: YFP reporter	E. coli	PhoQ-PhoP variant library, added: 10 µM Mg2+	reference: high Mg2+ state, higher = stronger signaling	fold induction	8.35

A few entries again (block 3):
Change	relative binding score
T160H	6.27%
N22H	33.6%
S11N	7.29%
S80A	12.6%
I79P	-0.124%
K116E	1.59%
